Results gathered from unrelated publications.
Parts stem from different laboratories: compare values within a part only.

Series 1
Target: Sal-like protein 4, full length isoform B (SALL4, Homo sapiens, UniProt Q9UJQ4-2, residues 1-616)
Technique: universal PBM
Form: double-stranded DNA, one strand shown
Sample: in vitro
Tested at: not given
Notes: 8-mer, flanks averaged, mean of replicates
Direction: higher = stronger binding
Measurement: E-score
ATCGCACC: -0.162
CTCGCTAA: -0.0818
GCAGACGA: -0.0193

Series 2
Target: Centromere-binding protein 1, full length, His-tagged (CBF1, Saccharomyces cerevisiae, UniProt P17106, residues 1-351)
Chain of UniProt P17106 (whole entry, looked up): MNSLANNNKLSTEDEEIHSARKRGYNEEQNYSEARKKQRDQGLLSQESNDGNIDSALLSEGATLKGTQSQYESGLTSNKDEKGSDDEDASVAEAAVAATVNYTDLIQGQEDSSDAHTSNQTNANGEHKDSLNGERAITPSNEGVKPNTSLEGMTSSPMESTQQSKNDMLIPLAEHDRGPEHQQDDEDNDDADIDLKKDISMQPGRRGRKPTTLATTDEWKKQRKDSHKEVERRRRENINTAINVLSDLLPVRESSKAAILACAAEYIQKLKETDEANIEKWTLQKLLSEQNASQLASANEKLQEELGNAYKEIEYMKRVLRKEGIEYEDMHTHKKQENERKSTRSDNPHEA
Technique: competition protein-binding microarray
Form: double-stranded DNA, one strand shown
Sample: in vitro
Tested at: 2 µM
Notes: whole 60-bp probe, lowest competitor level
Together with: Pho4 competitor, 0.05 µM
Direction: higher = stronger binding
Measurement: fluorescence intensity
AAAGGACCATTTAGGTACGTGGGACCGCAAAGGTTCGTCTTGATTCGCTTGACGCTGCTG: 56.3 a.u.
GTCTTGTCTCATTTTCACGTGGACTTCCCCACTTCAGTCTTGATTCGCTTGACGCTGCTG: 499 a.u.
ATAACGGTACTTATTTGCATGACGCTCATCAACCCTGTCTTGATTCGCTTGACGCTGCTG: 109 a.u.

Series 3
Target: Interferon regulatory factor 5, full length, phosphomimetic (IRF5, Homo sapiens, UniProt Q13568-2, residues 1-514, S451D/S453D/S456D/S462D)
Technique: protein-binding microarray
Form: double-stranded DNA, one strand shown
Sample: in vitro
Tested at: 940 nM top
Notes: 60-bp whole probe
Together with: salmon DNA 0.4 mg/ml
Baseline: random background probes
Direction: higher = stronger binding
Measurement: fitted relative affinity
GCCTAGCACGACGGTATCGTTTTCCTGACGTGCTAGGTCTTGATTCGCTTGACGCTGCTG: 4.54 z-score
GCCTAGCACATGGCTCTCTGGACTGTGTGTGTGCTAGTCTTGATTCGCTTGACGCTGCTG: 0.0585 z-score
GCCTAGCACTTAGAACTGAGTATCGTTTAGTGCTAGGTCTTGATTCGCTTGACGCTGCTG: 2.27 z-score
GCCTAGCACTTAGAACTGGGGACTGGTTTAGTGCTAGTCTTGATTCGCTTGACGCTGCTG: 0.0258 z-score

Further values, each from its own experiment
PhoQ, residues 284 288 289 292 302 303 WSHMKI  fold induction (PhoP, residues 12 14 15 18 19 HLGGL (Escherichia coli, UniProt P23836); Sort-seq, measured: YFP reporter; E. coli; PhoQ-PhoP variant library, together with: 10 µM Mg2+; baseline: high Mg2+ state, higher = stronger signaling): 0.842

Excerpt of the above (series 2):
ATAACGGTACTTATTTGCATGACGCTCATCAACCCTGTCTTGATTCGCTTGACGCTGCTG: 109 a.u.
AAAGGACCATTTAGGTACGTGGGACCGCAAAGGTTCGTCTTGATTCGCTTGACGCTGCTG: 56.3 a.u.
